Experimental data of several laboratories.
± gives the spread as reported.
NPY4R: Neuropeptide Y receptor type 4 (NPY4R, Homo sapiens, UniProt P50391)

| SMILES | tested on | assay | test system | setting | scale | quantity | result |
| --- | --- | --- | --- | --- | --- | --- | --- |
| CCCC[C@H](NC(=O)COCCOCCNC(=O)CN1CCN(CC(=O)O)CCN(CC(=O)O)CC1)C(=O)N[C@H]1CC(=O)NCCCC[C@@H](C(N)=O)NC(=O)[C@H](Cc2c[nH]c3ccccc23)NC(=O)[C@H](CCCNC(=N)N)NC(=O)[C@@H](Cc2ccccc2)NC(=O)[C@H](Cc2c[nH]cn2)NC1=O [technetium-99m labelled] | – | – | C57 mouse, kidneys | intravenous, 0.037 MBq, 24 h | – | tissue uptake | 0.03 ± 0.01 %ID/g |
| O=C1C2CCCN2C(c2cccs2)N1c1ccc(Cl)c(Cl)c1 (stereo not drawn) | Sodium-dependent serotonin transporter (Slc6a4, Rattus norvegicus, UniProt P31652) | ligand displacement, radioligand | – | – | – | Ki | 86.1 nM |
| NCCC(=O)O | Sodium- and chloride-dependent taurine transporter (SLC6A6, Homo sapiens, UniProt P31641, S402A) | – | – | – | – | Kd | 872000 ± 1.47e+06 nM |
| CC(C)C[C@H](NC(=O)[C@H](CCCNC(=N)N)NC(=O)[C@H](Cc1ccc(O)cc1)NC(=O)CCCCCCC(=O)N[C@@H](Cc1ccc(O)cc1)C(=O)N[C@@H](CCCNC(=N)N)C(=O)N[C@@H](CC(C)C)C(=O)NN(CCCNC(=N)N)C(=O)N[C@@H](Cc1ccc(O)cc1)C(N)=O)C(=O)NN(CCCNC(=N)N)C(=O)N[C@@H](Cc1ccc(O)cc1)C(N)=O | NPY4R | antagonist | cell-based | – | – | Kb | 50.6 ± 0.2 nM |
| CN(C)c1cccc(-c2ccc3ncnc(Nc4ccc(OCc5cccc(F)c5)c(Cl)c4)c3c2)c1 | Leishmania major | intracellular amastigote growth, luciferase | RAW264.7 macrophages | – | – | EC50 | > 15000 nM |
| Cc1nn(-c2cccc(N)c2)c(=O)c2cnc(Nc3ccc(N4CCNCC4)cc3)nc12 | Aurora kinase B (AURKB, Homo sapiens, UniProt Q96GD4) | enzyme activity, inhibitor | – | – | – | IC50 | > 10000 nM |
| Nc1nnc(-c2ccccc2O)cc1N1CC2CCC(C1)N2c1ccnc(C#CCCN2CCCCCC2)c1 | SWI/SNF-related matrix-associated actin-dependent regulator of chromatin subfamily A member 4 (SMARCA4, Homo sapiens, UniProt P51532) | degrader, immunofluorescence | SW1573 | – | – | DC50 | 0.84 nM |
| CC[C@H](C)[C@@H](C(=O)N[C@@H](CC(C)C)C(=O)N[C@@H](CO)C(=O)N[C@@H](CO)C(=O)N[C@H](C(=O)N[C@@H](CCC(=O)O)C(=O)N[C@H](C(=O)NCC(=O)N[C@@H](CO)C(=O)N[C@@H](CC(N)=O)C(=O)N[C@H](C(=O)N1C[C@H](O)C[C@H]1C(N)=O)[C@@H](C)O)C(C)C)[C@@H](C)O)N(C)C(=O)[C@H](C)NC(=O)CN(C)C(=O)[C@H](Cc1ccccc1)NC(=O)[C@H](CO)NC(=O)[C@H](CO)NC(=O)[C@H](CCCNC(=N)N)NC(=O)[C@H](CCC(N)=O)NC(=O)[C@H](CC(C)C)NC(=O)[C@H](Cc1ccccc1)NC(=O)[C@H](Cc1c[nH]cn1)NC(=O)[C@H](C)NC(=O)[C@H](CC(C)C)NC(=O)[C@H](CCCNC(=N)N)NC(=O)[C@H](CCC(=O)O)NC(=O)[C@@H](NC(=O)[C@H](C)NC(=O)[C@@H]1CC(=O)NCC[C@H](NC(=O)[C@H](CCCNC(=N)N)NC(=O)CC[C@H](NC(=O)CCCCCCCCCCCCCCCCCCC(=O)O)C(=O)O)C(=O)NCC(=O)N[C@@H]([C@@H](C)O)C(=O)N[C@@H](C)C(=O)N[C@@H]([C@@H](C)O)C(=O)N1)[C@@H](C)O | Calcitonin receptor (CALCR, Homo sapiens, UniProt P30988) | cAMP, agonist | – | – | – | EC50 | 50.1 nM |
| CN1CCN(S(=O)(=O)c2ccc(-c3ccc4ncnc(Nc5ccccc5)c4c3)cc2)CC1 | Leishmania major | intracellular amastigote growth, luciferase | RAW264.7 macrophages | – | – | EC50 | > 15000 nM |
| CCOC(=O)C(CCNC(=O)CCc1ccc(O)c(O)c1CCc1ccc(O)c(O)c1)Cc1cccc(O)c1 (stereo not drawn) | Transgelin (TAGLN, Homo sapiens, UniProt Q01995) | binding, surface plasmon resonance | – | – | – | Kd | 602000 nM |
| COC1CN([C@H]2CC[C@H]([C@@]3(C)Oc4c(Cl)cc(C(=O)NCc5c(SC)cc(C)[nH]c5=O)c(C)c4O3)CC2)C1 | – | RNA-seq, item: PCGF5 | human, whole blood | dose not given, 24 h | relative to: pretreatment baseline | log2 fold change | 1.15 |
| CC(C)CN(NC(=O)[C@H](CCCNC(=N)N)NC(=O)[C@H](Cc1ccc(O)cc1)NC(=O)CCCCCCC(=O)N[C@@H](Cc1ccc(O)cc1)C(=O)N[C@@H](CCCNC(=N)N)C(=O)NN(CC(C)C)C(=O)N[C@@H](CCCNC(=N)N)C(=O)N[C@@H](Cc1ccc(O)cc1)C(N)=O)C(=O)N[C@@H](CCCNC(=N)N)C(=O)N[C@@H](Cc1ccc(O)cc1)C(N)=O | NPY4R | calcium signal, antagonist | – | – | – | Kb | 127 nM |

For quick reference, copied from above:
| SMILES | tested on | assay | test system | setting | scale | quantity | result |
| --- | --- | --- | --- | --- | --- | --- | --- |
| O=C1C2CCCN2C(c2cccs2)N1c1ccc(Cl)c(Cl)c1 (stereo not drawn) | Sodium-dependent serotonin transporter (Slc6a4, Rattus norvegicus, UniProt P31652) | ligand displacement, radioligand | – | – | – | Ki | 86.1 nM |
